Measurements from different studies.
Compare with care: the assays were run in different laboratories. Numbers after ± are the reported error.
Beta-lactamase CTX-M-27: Beta-lactamase CTX-M-27 (Escherichia coli, UniProt Q840M4)
UniProt Q8JGN5, sequence (whole entry, looked up): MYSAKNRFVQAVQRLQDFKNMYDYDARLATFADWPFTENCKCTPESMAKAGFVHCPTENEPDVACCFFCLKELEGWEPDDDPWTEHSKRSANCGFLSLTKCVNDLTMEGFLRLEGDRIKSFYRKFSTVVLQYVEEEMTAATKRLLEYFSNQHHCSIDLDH
UniProt P02699, sequence (whole entry, looked up): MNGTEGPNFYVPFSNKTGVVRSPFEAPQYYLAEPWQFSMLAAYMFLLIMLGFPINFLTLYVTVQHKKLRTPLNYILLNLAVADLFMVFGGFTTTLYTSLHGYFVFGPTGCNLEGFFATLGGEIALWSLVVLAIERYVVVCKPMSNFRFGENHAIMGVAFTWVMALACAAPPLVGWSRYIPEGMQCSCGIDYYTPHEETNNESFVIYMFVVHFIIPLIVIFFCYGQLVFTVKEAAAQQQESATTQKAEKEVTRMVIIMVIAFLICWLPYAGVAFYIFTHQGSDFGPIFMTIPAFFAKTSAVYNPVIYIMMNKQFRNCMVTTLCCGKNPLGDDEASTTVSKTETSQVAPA
UniProt Q8NFD5, sequence (whole entry, looked up): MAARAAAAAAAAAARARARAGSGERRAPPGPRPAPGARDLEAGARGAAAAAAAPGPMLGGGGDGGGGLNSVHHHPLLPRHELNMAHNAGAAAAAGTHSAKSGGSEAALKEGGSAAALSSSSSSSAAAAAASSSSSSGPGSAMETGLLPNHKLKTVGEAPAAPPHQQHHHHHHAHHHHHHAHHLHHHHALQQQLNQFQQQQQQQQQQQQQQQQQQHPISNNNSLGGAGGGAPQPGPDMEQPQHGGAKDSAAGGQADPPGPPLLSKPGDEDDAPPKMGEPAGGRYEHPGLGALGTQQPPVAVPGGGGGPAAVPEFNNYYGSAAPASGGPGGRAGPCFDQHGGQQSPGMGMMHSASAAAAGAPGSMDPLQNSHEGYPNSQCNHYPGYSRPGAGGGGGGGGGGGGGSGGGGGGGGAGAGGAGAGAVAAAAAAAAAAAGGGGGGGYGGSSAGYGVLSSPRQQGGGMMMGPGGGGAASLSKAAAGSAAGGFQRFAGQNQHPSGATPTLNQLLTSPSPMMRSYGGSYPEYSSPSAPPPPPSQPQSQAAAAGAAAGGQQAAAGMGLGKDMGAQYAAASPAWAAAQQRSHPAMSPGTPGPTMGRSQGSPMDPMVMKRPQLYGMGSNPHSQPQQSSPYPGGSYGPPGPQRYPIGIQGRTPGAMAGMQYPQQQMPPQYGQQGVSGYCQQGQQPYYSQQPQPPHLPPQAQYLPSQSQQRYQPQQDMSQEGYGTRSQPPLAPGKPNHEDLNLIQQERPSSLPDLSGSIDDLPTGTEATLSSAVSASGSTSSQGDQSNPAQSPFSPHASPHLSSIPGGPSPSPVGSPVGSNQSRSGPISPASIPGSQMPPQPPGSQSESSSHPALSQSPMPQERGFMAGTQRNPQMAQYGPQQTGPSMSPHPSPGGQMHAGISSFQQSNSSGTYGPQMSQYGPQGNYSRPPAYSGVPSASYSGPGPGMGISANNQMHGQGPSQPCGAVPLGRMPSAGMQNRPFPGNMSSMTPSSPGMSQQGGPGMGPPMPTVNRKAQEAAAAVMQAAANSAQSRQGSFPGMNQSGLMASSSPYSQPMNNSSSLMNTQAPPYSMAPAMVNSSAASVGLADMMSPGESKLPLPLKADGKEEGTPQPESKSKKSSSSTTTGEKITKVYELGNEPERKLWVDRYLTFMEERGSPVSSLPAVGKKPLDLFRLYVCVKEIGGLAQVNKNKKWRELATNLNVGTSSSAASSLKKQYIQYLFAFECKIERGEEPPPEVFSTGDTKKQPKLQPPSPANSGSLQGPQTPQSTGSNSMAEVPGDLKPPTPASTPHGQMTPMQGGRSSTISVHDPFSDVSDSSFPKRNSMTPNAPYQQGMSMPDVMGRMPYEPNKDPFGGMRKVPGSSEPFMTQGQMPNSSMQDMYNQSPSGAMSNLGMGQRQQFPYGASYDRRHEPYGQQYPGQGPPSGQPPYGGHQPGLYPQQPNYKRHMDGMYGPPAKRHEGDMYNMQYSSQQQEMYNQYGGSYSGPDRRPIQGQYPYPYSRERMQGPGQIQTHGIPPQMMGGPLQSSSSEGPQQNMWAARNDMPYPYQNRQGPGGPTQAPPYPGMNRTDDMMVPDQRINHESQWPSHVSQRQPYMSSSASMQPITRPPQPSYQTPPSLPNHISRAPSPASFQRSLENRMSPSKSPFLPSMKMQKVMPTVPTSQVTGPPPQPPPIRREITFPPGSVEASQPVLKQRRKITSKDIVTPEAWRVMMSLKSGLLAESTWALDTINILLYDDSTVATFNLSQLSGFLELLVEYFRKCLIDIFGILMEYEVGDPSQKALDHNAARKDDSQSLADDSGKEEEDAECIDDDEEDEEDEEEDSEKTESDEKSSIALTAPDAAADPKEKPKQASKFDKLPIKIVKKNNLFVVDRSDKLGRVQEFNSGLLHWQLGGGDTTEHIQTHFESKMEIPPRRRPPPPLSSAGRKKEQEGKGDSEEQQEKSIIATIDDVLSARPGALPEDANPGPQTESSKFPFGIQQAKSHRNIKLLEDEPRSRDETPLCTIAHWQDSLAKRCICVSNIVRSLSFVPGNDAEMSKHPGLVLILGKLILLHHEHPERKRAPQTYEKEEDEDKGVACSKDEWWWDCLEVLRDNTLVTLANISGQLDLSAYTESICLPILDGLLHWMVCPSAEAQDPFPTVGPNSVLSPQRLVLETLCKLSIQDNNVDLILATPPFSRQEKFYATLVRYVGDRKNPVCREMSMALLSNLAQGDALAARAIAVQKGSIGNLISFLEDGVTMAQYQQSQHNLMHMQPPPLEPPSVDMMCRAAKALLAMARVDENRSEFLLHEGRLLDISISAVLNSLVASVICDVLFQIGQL
UniProt P69905, sequence (whole entry, looked up): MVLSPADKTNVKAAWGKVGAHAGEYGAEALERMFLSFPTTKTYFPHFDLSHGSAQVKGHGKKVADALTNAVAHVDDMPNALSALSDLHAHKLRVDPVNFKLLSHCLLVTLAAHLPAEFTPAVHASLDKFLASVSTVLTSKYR
UniProt Q8N3U4, sequence (whole entry, looked up): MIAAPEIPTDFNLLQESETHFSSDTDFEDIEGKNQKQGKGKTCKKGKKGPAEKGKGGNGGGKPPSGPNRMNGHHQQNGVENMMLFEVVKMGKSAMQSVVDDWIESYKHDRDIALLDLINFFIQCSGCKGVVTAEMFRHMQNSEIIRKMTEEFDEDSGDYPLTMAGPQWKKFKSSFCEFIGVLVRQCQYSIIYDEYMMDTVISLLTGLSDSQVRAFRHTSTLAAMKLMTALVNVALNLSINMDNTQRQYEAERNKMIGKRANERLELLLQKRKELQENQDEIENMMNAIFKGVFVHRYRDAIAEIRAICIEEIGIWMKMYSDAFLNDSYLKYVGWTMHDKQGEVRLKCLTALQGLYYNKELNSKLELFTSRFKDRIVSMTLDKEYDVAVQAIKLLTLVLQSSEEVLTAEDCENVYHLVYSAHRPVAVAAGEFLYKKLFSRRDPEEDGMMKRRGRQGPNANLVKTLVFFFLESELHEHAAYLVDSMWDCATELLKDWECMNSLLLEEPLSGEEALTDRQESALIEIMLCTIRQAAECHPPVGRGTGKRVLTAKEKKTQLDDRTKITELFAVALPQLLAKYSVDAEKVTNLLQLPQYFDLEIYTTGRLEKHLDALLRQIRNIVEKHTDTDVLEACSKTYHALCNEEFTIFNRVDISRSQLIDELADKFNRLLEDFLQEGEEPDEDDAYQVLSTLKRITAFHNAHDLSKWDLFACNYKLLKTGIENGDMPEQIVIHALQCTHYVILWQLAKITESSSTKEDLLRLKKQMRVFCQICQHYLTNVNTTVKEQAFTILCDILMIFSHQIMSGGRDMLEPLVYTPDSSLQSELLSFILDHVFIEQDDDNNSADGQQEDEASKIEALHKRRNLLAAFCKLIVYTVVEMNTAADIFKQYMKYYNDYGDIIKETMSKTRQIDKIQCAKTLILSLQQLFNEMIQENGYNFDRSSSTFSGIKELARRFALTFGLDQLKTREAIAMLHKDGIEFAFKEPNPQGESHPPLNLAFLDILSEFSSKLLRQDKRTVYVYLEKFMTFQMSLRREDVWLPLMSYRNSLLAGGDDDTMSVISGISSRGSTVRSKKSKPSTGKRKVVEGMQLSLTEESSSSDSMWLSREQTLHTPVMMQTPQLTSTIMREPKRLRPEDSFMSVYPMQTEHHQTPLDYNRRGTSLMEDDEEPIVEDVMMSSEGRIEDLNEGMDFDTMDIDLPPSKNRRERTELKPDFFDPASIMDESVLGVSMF
UniProt Q9WYW0, sequence (whole entry, looked up): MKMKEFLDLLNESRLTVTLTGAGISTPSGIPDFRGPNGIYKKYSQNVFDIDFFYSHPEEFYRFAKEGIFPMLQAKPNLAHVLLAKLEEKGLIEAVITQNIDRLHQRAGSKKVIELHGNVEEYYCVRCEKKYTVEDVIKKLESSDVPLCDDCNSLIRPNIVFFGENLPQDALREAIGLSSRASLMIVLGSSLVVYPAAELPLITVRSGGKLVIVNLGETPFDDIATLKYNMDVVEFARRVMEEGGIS
UniProt Q07741, sequence (whole entry, looked up): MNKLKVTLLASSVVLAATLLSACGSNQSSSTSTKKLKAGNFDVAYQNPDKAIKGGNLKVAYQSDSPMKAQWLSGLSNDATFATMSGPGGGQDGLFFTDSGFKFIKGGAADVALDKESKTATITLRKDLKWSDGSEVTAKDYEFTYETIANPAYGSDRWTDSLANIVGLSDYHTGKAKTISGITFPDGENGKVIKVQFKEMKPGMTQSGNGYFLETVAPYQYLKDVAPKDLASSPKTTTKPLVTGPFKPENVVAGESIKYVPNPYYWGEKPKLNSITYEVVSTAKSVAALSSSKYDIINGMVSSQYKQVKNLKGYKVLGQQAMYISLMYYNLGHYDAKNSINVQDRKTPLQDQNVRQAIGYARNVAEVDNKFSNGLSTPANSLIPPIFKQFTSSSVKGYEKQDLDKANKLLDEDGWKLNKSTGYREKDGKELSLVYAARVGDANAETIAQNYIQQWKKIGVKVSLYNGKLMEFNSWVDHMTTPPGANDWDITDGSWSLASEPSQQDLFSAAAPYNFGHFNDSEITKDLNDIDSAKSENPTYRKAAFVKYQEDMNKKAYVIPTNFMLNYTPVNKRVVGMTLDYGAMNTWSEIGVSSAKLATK

SMILES	target	test	test system	setting	Kd
COC(=O)[C@H](Cc1ccccc1)NC(=O)[C@@H]1CCCN1C(=O)[C@H](CCC(=O)O)NC(=O)C(C)NC(C)=O (stereo in doubt)	Peptidyl-prolyl cis-trans isomerase NIMA-interacting 4 (Homo sapiens, UniProt Q9Y237)	binding, label-free Epic	PBS	pH 7.4, 0.5% DMSO	18.6 ± 11.5 µM
O=C(Nc1cccc(-c2nn[nH]n2)c1)c1cc(-c2ccsc2)cc(C(F)(F)F)c1	Beta-lactamase CTX-M-27	surface plasmon resonance		25 °C	11.4 ± 0.7 µM
CC(=O)NCCCC[C@H](NC(=O)[C@H](CCCCN)NC(=O)[C@H](Cc1c[nH]cn1)NC(=O)[C@H](CCCNC(=N)N)NC(=O)[C@H](CO)NC(=O)[C@@H](NC(=O)[C@H](CO)NC(=O)[C@H](CCC(N)=O)NC(=O)CNC(=O)[C@H](CCCCN)NC(=O)[C@@H](N)CCCCN)[C@@H](C)O)C(=O)N[C@@H](CC(C)C)C(=O)N[C@@H](CCC(=O)O)C(=O)N[C@@H](Cc1ccccc1)C(=O)N[C@@H](CCCCN)C(=O)N[C@H](C(=O)N[C@@H](CCC(=O)O)C(=O)NCC(=O)O)[C@@H](C)O	NAD-dependent protein deacetylase (cobB, Thermotoga maritima, UniProt Q9WYW0)	acetylated p53 peptide binding, intrinsic tyrosine fluorescence		pH 9.2, target 0.4 µM	0.11 µM
CC(C)CC(NC(=O)C(NC(=O)NC(C(=O)O)C(C)C)C1CCNC(=N)N1)C(=O)NCCCNC(C(=O)O)C(OC1OC(CN)C(O)C1O)C1OC(n2ccc(=O)[nH]c2=O)C(O)C1O (centres unmarked)	mraY (Aquifex aeolicus, UniProt O66465, N255A)	binding, ITC			0.0297 µM
C[C@@H](O)[C@H](NC(=O)[C@@H]1CSSC[C@H](NC(=O)[C@@H](Cc2ccccc2)NC(=O)CN2CCCN3CCN(CCCN(CP(=O)(O)O)CC3)CC2)C(=O)N[C@@H](Cc2ccc(O)cc2)C(=O)N[C@H](Cc2c[nH]c3ccccc23)C(=O)N[C@@H](CCCCN)C(=O)N[C@@H]([C@@H](C)O)C(=O)N1)C(=O)O [copper-64 labelled]	Somatostatin receptor type 2 (Rattus norvegicus, UniProt P30680)	binding, saturation binding	AR-42J cell membranes	2 h, room temperature	0.0018 ± 0.0005 µM
CCCCCCCCCCCCCCCC(=O)OCC(CSC[C@H](N)C(=O)N[C@@H](CO)C(=O)N[C@@H](CCCCN)C(=O)N[C@@H](CCCCN)C(=O)N[C@@H](CCCCN)C(=O)N[C@@H](CCCCN)C(=O)NCCCCCC(=O)N[C@@H](CCCCN)C(=O)N[C@@H](CC(C)C)C(=O)N[C@H](C(=O)N[C@@H](Cc1ccccc1)C(=O)N[C@@H](Cc1ccccc1)C(=O)N[C@@H](Cc1ccc2ccccc2c1)C(=O)O)C(C)C)OC(=O)CCCCCCCCCCCCCCC (some centres unmarked)	APP (Homo sapiens, UniProt P05067)	binding, MST			0.041 µM
CC(C)C[C@H](NC(=O)CNC(=O)[C@@H](NC(=O)[C@H](CO)NC(=O)[C@H](CCCCN)NC(=O)[C@H](CC(C)C)NC(=O)[C@H](CC(=O)O)NC(=O)[C@H](CCC(=O)O)NC(=O)[C@H](CC(C)C)NC(=O)[C@@H](NC(=O)C1CC(C)(C)N([O])C1(C)C)C(C)C)C(C)C)C(=O)N[C@@H](Cc1ccccc1)C(=O)O (some centres unmarked)	Rhodopsin, photoactivated (Meta II) (RHO, Bos taurus, UniProt P02699)	EPR	rod outer segment membranes	pH 6.8, 296 K, rhodopsin 90 µM	4 µM
CCCCCCCCCCCCCC(=O)N[C@H](CCN)C(=O)N[C@@H]1C(=O)N[C@@H](CCN)C(=O)N[C@@H](CC(C)C)C(=O)N[C@@H](CCN)C(=O)N[C@H](Cc2ccccc2)C(=O)N[C@@H](CC(C)C)C(=O)N[C@@H](CCN)C(=O)N[C@H](CCN)C(=O)N[C@@H](C(C)C)C(=O)N[C@@H](CC(=O)O)C(=O)O[C@@H]1C	lipoteichoic acid	binding, isothermal titration calorimetry		pH 7.4, 25 °C	5.61 ± 3.53 µM
Cc1cc(-c2ccc3c(c2)CCC3O)cc(C)c1O (centres unmarked)	Estrogen receptor (ESR1, Homo sapiens, UniProt P03372)	binding, competitive radioligand binding			10 µM
CCCC[C@H]1C(=O)N[C@@H](C(C)C)C(=O)N[C@@H](Cc2ccc(O)cc2)C(=O)N[C@@H](C(C)C)C(=O)N[C@@H](CCCNC(=N)N)C(=O)N[C@@H](Cc2ccc(O)cc2)C(=O)N[C@@H](CCC(N)=O)C(=O)N(C)[C@@H](Cc2ccccc2)C(=O)N[C@H](C(N)=O)CSCC(=O)N[C@@H](Cc2ccccc2)C(=O)N[C@@H](Cc2c[nH]c3ccccc23)C(=O)N[C@@H](CC(C)C)C(=O)NCC(=O)N[C@@H](CCCCN)C(=O)N1C	AT-rich interactive domain-containing protein 1B (ARID1B, Homo sapiens, UniProt Q8NFD5)	SPR		278 K	0.017 µM
CC(C)C[C@H](NC(=O)[C@H](Cc1ccc(OP(=O)(O)O)cc1)NC(=O)[C@H](CCC(=O)O)NC(=O)[C@H](CC(=O)O)NC(=O)[C@H](C)NC(=O)[C@H](CC(=O)O)NC(=O)[C@@H](NC(=O)CCCCCNC(=O)CCCC[C@@H]1SC[C@@H]2NC(=O)N[C@@H]21)C(C)C)C(N)=O	DUSP14 (Homo sapiens, UniProt O95147, C111S)	binding			1.4 ± 1.3 µM
CC(C)[C@H](NC(=O)[C@H](CO)NC(=O)[C@@H](NC(=O)[C@@H](N)CC(=O)O)C(C)C)C(=O)N[C@@H](Cc1ccc(O)cc1)C(=O)N[C@@H](CC(=O)O)C(=O)N[C@@H](Cc1ccccc1)C(=O)N[C@@H](CCC(=O)O)C(=O)N[C@@H](CCC(=O)O)C(=O)N[C@@H](CCC(=O)O)C(=O)O	RAD21/STAG2 (Homo sapiens, UniProt O60216+Q8N3U4)	binding, isothermal titration calorimetry		pH 7.7, 25 °C	1.04 ± 0.2 µM
O=C(Nc1cccc(-c2nn[nH]n2)c1)c1cc(-n2ccnc2)cc(C(F)(F)F)c1	Beta-lactamase CTX-M-27	surface plasmon resonance		25 °C	6.21 ± 0.07 µM
CCOC(=O)CCCOc1ccc(C(c2cc3c4c(c2)CCCN4CCC3)=c2cc3c4c(c2)CCC[N+]=4CCC3)cc1	dL5** fluorogen-activating protein	fluorescence turn-on			0.061 µM
N=C(N)NCCC[C@H](NC(=O)[C@H](Cc1ccccc1)NC(=O)[C@@H]1CCCN1C(=O)[C@H](CO)NC(=O)[C@H](Cc1ccccc1)NC(=O)CNC(=O)[C@@H]1CCCN1C(=O)[C@@H]1CCCN1C(=O)[C@@H](N)CCCNC(=N)N)C(=O)N[C@@H](CCCCNS(=O)(=O)c1ccc(C2=c3cc4c5c(c3Oc3c2cc2c6c3CCCN6CCC2)CCC[N+]=5CCC4)c(S(=O)(=O)[O-])c1)C(=O)O	Oligopeptide-binding protein OppA (oppA, Lactococcus lactis subsp. lactis, UniProt Q07741)	binding, fluorescence anisotropy		pH 6, 24 °C, together with: dye-labelled peptide	10.4 ± 0.4 µM
C[C@H](N)C(=O)N[C@@H](CCCNC(=N)N)C(=O)N[C@H](C(=O)N[C@@H](CCCCN)C(=O)N[C@@H](CCC(N)=O)C(=O)N[C@H](C(=O)N[C@@H](C)C(=O)N[C@@H](CCCNC(=N)N)C(=O)N[C@@H](CCCCN)C(=O)N[C@@H](CO)C(=O)N[C@H](C(=O)NCC(=O)O)[C@@H](C)O)[C@@H](C)O)[C@@H](C)OP(=O)(O)O	Baculoviral IAP repeat-containing protein 5.1-A (birc5.1-a, Xenopus laevis, UniProt Q8JGN5)	isothermal titration calorimetry		pH 8.2, 25 °C, together with: histone H3 peptide	19.9 ± 2.4 µM
NCCCC[C@H](NC(=O)[C@@H](N)CCCCN)C(=O)NCC(=O)NCC(=O)NCCCCCCCCNC(=O)c1ccc(-c2ccccn2)cc1	Calmodulin-1 (CALM1, Homo sapiens, UniProt P0DP23)	quartz crystal microbalance	PBS	25 °C, calcium-free	8.3 ± 0.1 µM
CC(=O)N(CC(=O)N(C)[C@@H](C)C(=O)N(Cc1c[nH]c2cc(Cl)ccc12)[C@@H](C)C(=O)N(C)[C@@H](C)C(=O)N(CCC(C)(C)C)[C@@H](C)C(=O)N1CCNCC1)Cc1ccccc1	E3 ubiquitin-protein ligase Mdm2, N-terminal domain 17-125 (MDM2, Homo sapiens, UniProt Q00987)	binding, SPR steady-state affinity	PBS with Tween	10 °C, immobilised peptoid	0.35 µM
C=C/C=C\CC[C@H]1O[C@H]2CC[C@@]3(C)O[C@H]4[C@@H](O)C[C@@]5(C)O[C@@H](CC/C=C(C)/C(C)=C/C=N/NC(=O)CCC6=[N+]7C(=Cc8c(C)cc(C)n8[B-]7(F)F)C=C6)[C@@H](C)C[C@@H]5O[C@@H]4C[C@@H]3O[C@@H]2CC[C@]1(C)O	brevenal binding site (rat)	saturation binding	rat brain synaptosomes		0.264 ± 0.046 µM
COc1cc(C=O)ccc1OCc1cccc(CO)n1	Hemoglobin subunit alpha, with beta chain (HBA1, Homo sapiens, UniProt P69905)	steady-state binding, cation-exchange HPLC		37 °C	580 µM

For quick reference, copied from above:
SMILES	target	test	test system	setting	Kd
CCCCCCCCCCCCCCCC(=O)OCC(CSC[C@H](N)C(=O)N[C@@H](CO)C(=O)N[C@@H](CCCCN)C(=O)N[C@@H](CCCCN)C(=O)N[C@@H](CCCCN)C(=O)N[C@@H](CCCCN)C(=O)NCCCCCC(=O)N[C@@H](CCCCN)C(=O)N[C@@H](CC(C)C)C(=O)N[C@H](C(=O)N[C@@H](Cc1ccccc1)C(=O)N[C@@H](Cc1ccccc1)C(=O)N[C@@H](Cc1ccc2ccccc2c1)C(=O)O)C(C)C)OC(=O)CCCCCCCCCCCCCCC (some centres unmarked)	APP (Homo sapiens, UniProt P05067)	binding, MST			0.041 µM
CC(C)C[C@H](NC(=O)CNC(=O)[C@@H](NC(=O)[C@H](CO)NC(=O)[C@H](CCCCN)NC(=O)[C@H](CC(C)C)NC(=O)[C@H](CC(=O)O)NC(=O)[C@H](CCC(=O)O)NC(=O)[C@H](CC(C)C)NC(=O)[C@@H](NC(=O)C1CC(C)(C)N([O])C1(C)C)C(C)C)C(C)C)C(=O)N[C@@H](Cc1ccccc1)C(=O)O (some centres unmarked)	Rhodopsin, photoactivated (Meta II) (RHO, Bos taurus, UniProt P02699)	EPR	rod outer segment membranes	pH 6.8, 296 K, rhodopsin 90 µM	4 µM
CCCCCCCCCCCCCC(=O)N[C@H](CCN)C(=O)N[C@@H]1C(=O)N[C@@H](CCN)C(=O)N[C@@H](CC(C)C)C(=O)N[C@@H](CCN)C(=O)N[C@H](Cc2ccccc2)C(=O)N[C@@H](CC(C)C)C(=O)N[C@@H](CCN)C(=O)N[C@H](CCN)C(=O)N[C@@H](C(C)C)C(=O)N[C@@H](CC(=O)O)C(=O)O[C@@H]1C	lipoteichoic acid	binding, isothermal titration calorimetry		pH 7.4, 25 °C	5.61 ± 3.53 µM
